# Experimental data from different studies.
# A part holds a random share of what one study measured. Changes are numbered by the printed parent chain.

# Series 1 — method: RNA Bind-n-Seq; form: RNA; matrix: in vitro; tested at: 200 nM; notes: whole 134-nt RNA, ends assumed; added: 150 mM KCl; reference: input library; reading: higher = stronger binding
# Target: Fragile X messenger ribonucleoprotein 1, C-terminal low-complexity region (Fmr1, Mus musculus, UniProt P35922)
# Shared flanks, not repeated: GGGAGUUCUACAGUCCGACGAUC … UGGAAUUCUCGGGUGUCAAGG
Sequence,log2 enrichment
UCCUGUGCUACACAUCGUAUGUACCGAAUCGGAAAAAAAGGAAAAAAAGGAAAAAAAGGGAAAGUAUUAUGUUACGCCGUUCGGAUCUGC,-0.236
AGUCCUGUGCUACACAUCGUAUGUACCGAAUCGGGUUUUUGGUUUUUGGGGUUUUUGGAAAGUAUUAUGUUACGCCGUUCGGAUCUGCAC,-0.28
GCAGGAAGUAAAAACAAAUGGAAAUGCUUCGUAUAGUGGCAGGGGUGGGGGUUGCUAAGGAAAGGGUGGGAUGGGAGUGGGUAAAGAGUU,0.292
UCAAGUCCUGUGCUACACAUCGUAUGUACCGAAUCGGGAAAAAGGGAGGGAGGGAAAGUAUUAUGUUACGCCGUUCGGAUCUGCACUUCC,1.04
UAACUUUAGAGGAGGAUCUGAUGGAUAUGGCAGUGGACGUGGAUUUGGGGAUGGCUACAAUGGGUAUGGAGGAGGACCUGGAGGUGGCAA,0.286
UUCAGUUUCCCAAACCUGAGAUGAUCUGUCAGCUGGAGAACUGGGACGAGCAGUGGAUCCUGGAUCUACCGAGAACUGGGAAUAGGAAGG,0.206
UUCCUCAAGUCCUGUGCUACACAUCGUAUGUACCGAAUCGGUGGGUGGUGGAAAGUAUUAUGUUACGCCGUUCGGAUCUGCACUUCCAGC,-0.0417
GUCCUGUGCUACACAUCGUAUGUACCGAAUCGGUUUUUGGAAAAAAAGGAAAAAAAGGAAAGUAUUAUGUUACGCCGUUCGGAUCUGCAC,-0.872
UUUGGAGAAGGAACCCCACUCUCCAGCUGACCAGCCUGAACAACAGGCAGAAUCCACUUUGACAUCAGCUGAGACUAGGGGAAGCAAGAA,-0.872
CUCAAGUCCUGUGCUACACAUCGUAUGUACCGAAUCGGCCGGGCCGGCCGGGGAAAGUAUUAUGUUACGCCGUUCGGAUCUGCACUUCCA,-0.429
CAAGUCCUGUGCUACACAUCGUAUGUACCGAAUCGGUGGAAAAAGGAAAAAAAGGAAAGUAUUAUGUUACGCCGUUCGGAUCUGCACUUC,-0.492
AAGUCCUGUGCUACACAUCGUAUGUACCGAAUCGGGUGGGUUUUUUUGGGAAAGGGAAAGUAUUAUGUUACGCCGUUCGGAUCUGCACUU,0.428
CUCAAGUCCUGUGCUACACAUCGUAUGUACCGAAUCGGGUGGGAGGGAAAGGGAAAGUAUUAUGUUACGCCGUUCGGAUCUGCACUUCCA,1.18
UAACUUUAGAGGAGGAUCUGAUGGAUAUGGCAGUGGACGUGGAUUUGGGGAUGGCUAUAAUGGUUAUGGAGGAGGACCUGGAGGUGGCAA,0.17

# Series 2 — method: RNA Bind-n-Seq; form: RNA; matrix: in vitro; tested at: 365 nM; reference: no-protein control; reading: higher = stronger binding
# Target: RNA binding protein fox-1 homolog 2, RRM domain, GST-SBP tag (RBFOX2, Homo sapiens, UniProt O43251-10, residues 100-194)
# Notes: natural RNA segment, single round, ends assumed
# Shared flanks, not repeated: GGGAGUUCUACAGUCCGACGAUC … UGGAAUUCUCGGGUGCCAA
# Construct (chain): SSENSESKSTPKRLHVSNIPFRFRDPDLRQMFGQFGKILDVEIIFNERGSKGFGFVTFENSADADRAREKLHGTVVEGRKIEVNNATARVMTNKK
Sequence,RBNS enrichment (R)
CGACACUGACGUCCACCGUGCAUGUGGCUGAGGGAGAGAGCCAGCUGGUUGUUUCUGGUAUAGCUGUGCCACGAGAGCCCAGCUUGCUGUUGCUGCGGCCCUGGGGUUUA,8.45
UGAGAGUAAUAUCUAAUUAUCUCAUUUUUUGUAGGUCUGUGAUAAAGAACUUAGUCAUCCCUUCCACCUCCUACUGUGAAGAACAGACCCUGGGUCCCACACUGAAAUCC,0.344
UCAUUUUUAGGAGGUGUGCAUGGAUGCAAUAUAUGAAAAUGGGACAUUCUGGAACUGCUGGUCAGGGGACUUUGUCGCCCUGUGCACUAAAAGGGCCAGAUUUUCAGCAG,6.26
AACUCUGAAGUAUCAAGAGUUUUAACUACUUGUCUCUCUUUUGCUAAGAAGGGAUUUUUGAAUAUGCUAUCUACCUGGAAUCUCUCUCUCAACAAAAGGUAUAUGCCUUC,0.475
CACACGUGCACAUUCCUCCCUUACAUGCUCAUUUGUGCCUUAAAUGUGCCUUAUAGGUAAAUCCAGGAUGACUGAGGAAUCCCUCGUCACUGGGAGAUUUUGUAUAUAUU,0.484
UGCUCCCAGAUGGCGGUCUCCUGGCAGCCUCCCCUCAGUCUUCCUCCACCCGCUCUUCCUUCCCAGCCUGCCUGCAUGCAUGUGCACCCUUGGUCUUCGCUCCAUCGCCU,19.3
AUCAUCUUCCUAGGCAGUCUCUUCCCCAAAGUCUCACCUUUUCUUCCAAUAGAAAAUUCCGCUUGACCUUUGGUGCACUGCCCACUUCCCAGCUCCACUGGCCCAAGUCU,0.402
GGCUUCUUUCUGUACUUGCUGACUUCUGUCAUAUUUCUUUCCAGAUGUGUUUACAGGUCCCUGUAAGCAGUGUUAGGUCCAUAGGCUUUUAUGACUCCAGUCUGCAAGCA,0.436
UGUGCAGUUAUUUAAAUUUGUUUCUGUCAAAUUAAUCAUUUUUGUUGGACGAUUCAGUGGCGGGGGGGUUUUGCCUAAAUUAGUAUAUAAAAACAAAAAUGCUAAAUUAU,1.04
AACUGAAACCACUUAGAAGAAAAGAAGAAACCUAAAUGUCUGUGGAAGUGAUCAGUAUUAAGUGGGUGAUGGCUCUUUCAUCUUCCUUAUCCCUAAAGAUACUUCCAACA,0.441
UGGCCACUUUUAGACAUUAUCAUUUUGCCUCAGGUUGGAGGACUUUGUGGAAUUUAAGAAAUACAUUUUGUGUGCAUAUUGUUUCAUAGCAAGAAUUGGUUGCAAAAAAA,0.625
UUCAAUGGAUUCCAUUCCUGUAUUCCUUAUGGGAGGUUGUUUUUAAAAUAGACUACUGCGAUUGAAAUGAACUCAAUAUGUAGUUAAGUUAUAGUUUUCUUCAAUGUAUU,0.471

# Series 3 — method: DHFR PCA, deep sequencing; matrix: yeast; added: (+)-ABA 0.032 µM; reference: wild-type fitted maximum; reading: higher = stronger binding
# Target: ABI1, truncated, D143A, DHFR fusion (Arabidopsis thaliana)
# Notes: methotrexate growth selection, single substitutions
# Starting sequence: PYL1, truncated, DHFR fusion (Arabidopsis thaliana); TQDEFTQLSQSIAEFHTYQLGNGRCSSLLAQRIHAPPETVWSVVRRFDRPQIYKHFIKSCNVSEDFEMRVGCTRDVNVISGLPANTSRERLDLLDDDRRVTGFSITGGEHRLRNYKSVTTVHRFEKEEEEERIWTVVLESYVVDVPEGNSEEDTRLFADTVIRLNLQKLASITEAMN
Variant,relative binding score
N61M,21.8%
V100S,-1.04%
Q7R,15.3%
S87W,28%
T39N,0.64%
R99E,-3.25%
R155L,5.4%
I52A,30%
E147F,6.79%
W134I,22.9%
V136M,17.3%
A13V,6.36%
L8R,0.929%
R49Q,39.9%
V78D,0.52%
L164T,12.5%
H16K,-2.79%
T106W,2.69%
V62P,-3.13%

# Series 4 — target: CCND1, cyclin fold, Cln2 fusion (human); method: yeast growth competition, sequencing; matrix: yeast; notes: weak parent motif; reference: not given; reading: higher = stronger binding
# Starting sequence: SAMHD1 docking peptide (human); ASKSRVQLFKDDP
Variant,normalised enrichment score
ASKRRVQLFKDDP [S4R],0.0686
ASKSRVQLFKDNP [D12N],0.27
APKSRVQLFKDDP [S2P],0.187
ASGSRVQLFKDDP [K3G],0.692
ASKSRVWLFKDDP [Q7W],0.373
ASKSRPQLFKDDP [V6P],-0.0266
ASKSRVQLFKDPP [D12P],0.484
ASKKRVQLFKDDP [S4K],-0.00647
ASKSRVQLEKDDP [F9E],0.0885
ASKSRVQLFKDFP [D12F],-0.00662
ASKSRSQLFKDDP [V6S],-0.466
ASKSTVQLFKDDP [R5T],0.513
ASKSCVQLFKDDP [R5C],1.73
ASKSQVQLFKDDP [R5Q],0.535
ASKSRVQLFSDDP [K10S],0.614
ASKSRVALFKDDP [Q7A],-0.128
ASKSRVTLFKDDP [Q7T],0.135
ASKMRVQLFKDDP [S4M],-0.0961
ASKSRVQLFKDIP [D12I],0.405
ASKSRVQLFWDDP [K10W],0.534
ASKSDVQLFKDDP [R5D],0.741
ASQSRVQLFKDDP [K3Q],0.646
ASKSRVQLYKDDP [F9Y],-0.0543
ASKSRVQLFKGDP [D11G],0.321
ASKSRTQLFKDDP [V6T],0.484

# For quick reference, copied from above (series 1):
Sequence,log2 enrichment
UCAAGUCCUGUGCUACACAUCGUAUGUACCGAAUCGGGAAAAAGGGAGGGAGGGAAAGUAUUAUGUUACGCCGUUCGGAUCUGCACUUCC,1.04
UAACUUUAGAGGAGGAUCUGAUGGAUAUGGCAGUGGACGUGGAUUUGGGGAUGGCUACAAUGGGUAUGGAGGAGGACCUGGAGGUGGCAA,0.286
UUCAGUUUCCCAAACCUGAGAUGAUCUGUCAGCUGGAGAACUGGGACGAGCAGUGGAUCCUGGAUCUACCGAGAACUGGGAAUAGGAAGG,0.206
UUCCUCAAGUCCUGUGCUACACAUCGUAUGUACCGAAUCGGUGGGUGGUGGAAAGUAUUAUGUUACGCCGUUCGGAUCUGCACUUCCAGC,-0.0417
GUCCUGUGCUACACAUCGUAUGUACCGAAUCGGUUUUUGGAAAAAAAGGAAAAAAAGGAAAGUAUUAUGUUACGCCGUUCGGAUCUGCAC,-0.872
UUUGGAGAAGGAACCCCACUCUCCAGCUGACCAGCCUGAACAACAGGCAGAAUCCACUUUGACAUCAGCUGAGACUAGGGGAAGCAAGAA,-0.872
CUCAAGUCCUGUGCUACACAUCGUAUGUACCGAAUCGGCCGGGCCGGCCGGGGAAAGUAUUAUGUUACGCCGUUCGGAUCUGCACUUCCA,-0.429
CAAGUCCUGUGCUACACAUCGUAUGUACCGAAUCGGUGGAAAAAGGAAAAAAAGGAAAGUAUUAUGUUACGCCGUUCGGAUCUGCACUUC,-0.492
AAGUCCUGUGCUACACAUCGUAUGUACCGAAUCGGGUGGGUUUUUUUGGGAAAGGGAAAGUAUUAUGUUACGCCGUUCGGAUCUGCACUU,0.428
